Measured values collected from several papers.
Lines come from different studies, so protocols differ. Numbers after ± are the reported error.
Target: Delta-type opioid receptor (Oprd1, Mus musculus, UniProt P32300)

CC(C)[C@H](NC(=O)[C@@H]1CNC(=O)NCCC[C@@H](NC(=O)[C@@H](N)Cc2ccc(O)cc2)C(=O)NCC(=O)N[C@@H](Cc2ccccc2)C(=O)N1)C(=O)N[C@H](C(=O)NCC(=O)NCCNC(N)=O)C(C)C — IC50 (contraction inhibition, agonist; mouse, isolated vas deferens): 18.5 ± 2 nM
Cc1cc(C(=O)NCCc2ccc(-c3ccccc3)cc2)cc(C)c1C[C@H](N)C(=O)N1Cc2ccccc2C[C@H]1C(=O)O — Kb (antagonist; mouse vas deferens): 1.76 ± 0.3 nM
Cc1cc(O)cc(C)c1C[C@H](C)C(=O)N[C@@H]1CSSC[C@@H](C(N)=O)N(C)C(=O)[C@H](Cc2ccccc2)N(C)C(=O)CNC1=O — Kb (antagonist; mouse vas deferens; together with: DPDPE): 277 ± 40 nM
Nc1ccc(C[C@H](NC(=O)[C@H](Cc2ccccc2)NC(=O)[C@@H]2Cc3ccccc3CN2C(=O)[C@@H](N)Cc2ccc(O)cc2)C(=O)N[C@@H](CC(=O)O)C(=O)NCCOCCOCCNC(=O)CCCC[C@@H]2SC[C@@H]3NC(=O)N[C@@H]32)cc1 — IC50 (ligand displacement, radioligand): 33.3 nM
Cc1cc(O)c(I)c(C)c1C[C@H](N)C(=O)N[C@H](C)C(=O)N[C@@H](Cc1ccccc1)C(=O)N[C@@H](Cc1ccccc1)C(N)=O — Ki (ligand displacement, radioligand; cell membranes): 58 nM
NC(=O)c1ccc(C[C@H](N)C(=O)N2Cc3ccccc3C[C@H]2C(=O)N[C@@H](Cc2ccccc2)C(=O)N[C@@H](Cc2ccccc2)C(=O)O)cc1 — Kb (antagonist): 18.3 ± 2.1 nM
CC(C)[C@H](NC(=O)[C@@H]1CCCNC(=O)NCCCC[C@@H](NC(=O)[C@@H](N)Cc2ccc(O)cc2)C(=O)NCC(=O)N[C@@H](Cc2ccccc2)C(=O)N1)C(=O)N[C@H](C(=O)NCC(=O)NCCNC(N)=O)C(C)C — IC50 (contraction inhibition, agonist; mouse, isolated vas deferens): 4.18 nM
C[n+]1ccc(C(=O)NC2CCC3(O)C4Cc5ccc(O)c6c5C3(CC[N+]4(C)CC3CC3)C2O6)cc1 (centres unmarked) — Ki (binding, radioligand displacement; CHO cell membranes; together with: [3H]diprenorphine): 9860 ± 1140 nM
N[C@@H](Cc1ccc(O)cc1)C(=O)N1Cc2ccccc2C[C@H]1C(=O)N[C@@H](Cc1ccccc1)C(=O)N[C@@H](Cc1ccc(N=C=S)cc1)C(=O)N[C@@H](CC(=O)O)C(=O)NCCOCCOCCNC(=O)CCCC[C@@H]1SC[C@@H]2NC(=O)N[C@@H]21 — IC50 (ligand displacement, radioligand): 40.5 nM
Cc1cc(O)cc(C)c1C[C@H](N)C(=O)N[C@H](C)C(=O)N[C@@H](Cc1ccccc1)C(=O)N[C@@H](Cc1ccccc1)C(N)=O — Ki (ligand displacement, radioligand; cell membranes): 2 nM
CC(C)[C@H](NC(=O)[C@@H]1CCNC(=O)NCCC[C@@H](NC(=O)[C@@H](N)Cc2ccc(O)cc2)C(=O)NCC(=O)N[C@@H](Cc2ccccc2)C(=O)N1)C(=O)N[C@H](C(=O)NCC(=O)NCCNC(N)=O)C(C)C — IC50 (contraction inhibition, agonist; mouse, isolated vas deferens): 20.5 ± 4 nM
